Published values from different studies.
Each line is one published result; not all experiments were run side by side. Values joined by “and” are separate records of one study, mostly repeats; a detail may differ. ± marks the error that the study gave.
Urease: Urease (Canavalia ensiformis, UniProt P07374)
Chain of UniProt P07374 (whole entry, looked up): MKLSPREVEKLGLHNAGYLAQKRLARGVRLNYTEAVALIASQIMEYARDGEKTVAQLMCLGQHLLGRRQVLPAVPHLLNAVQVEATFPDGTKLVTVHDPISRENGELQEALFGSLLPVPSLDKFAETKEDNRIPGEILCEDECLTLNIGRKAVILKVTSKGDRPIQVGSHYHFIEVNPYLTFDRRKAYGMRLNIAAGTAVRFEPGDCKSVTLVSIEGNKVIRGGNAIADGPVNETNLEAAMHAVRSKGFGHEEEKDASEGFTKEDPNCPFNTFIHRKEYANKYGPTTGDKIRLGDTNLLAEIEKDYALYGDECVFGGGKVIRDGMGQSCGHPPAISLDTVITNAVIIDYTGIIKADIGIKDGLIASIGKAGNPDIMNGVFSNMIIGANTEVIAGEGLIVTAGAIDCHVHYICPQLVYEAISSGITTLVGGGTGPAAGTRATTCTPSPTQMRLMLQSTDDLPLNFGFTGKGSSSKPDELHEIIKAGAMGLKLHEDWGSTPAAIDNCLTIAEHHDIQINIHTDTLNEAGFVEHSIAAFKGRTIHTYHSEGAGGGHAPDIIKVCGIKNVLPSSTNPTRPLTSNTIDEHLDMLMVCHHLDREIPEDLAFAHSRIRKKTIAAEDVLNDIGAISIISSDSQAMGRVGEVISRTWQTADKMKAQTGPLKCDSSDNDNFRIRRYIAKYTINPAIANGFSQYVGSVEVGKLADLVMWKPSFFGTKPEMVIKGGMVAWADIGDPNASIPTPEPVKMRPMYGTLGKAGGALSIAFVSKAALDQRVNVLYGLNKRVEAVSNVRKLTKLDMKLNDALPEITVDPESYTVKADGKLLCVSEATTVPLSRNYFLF
Inward rectifier potassium channel 4: Inward rectifier potassium channel 4 (Homo sapiens, UniProt P48050)
Chain of UniProt P48050 (whole entry, looked up): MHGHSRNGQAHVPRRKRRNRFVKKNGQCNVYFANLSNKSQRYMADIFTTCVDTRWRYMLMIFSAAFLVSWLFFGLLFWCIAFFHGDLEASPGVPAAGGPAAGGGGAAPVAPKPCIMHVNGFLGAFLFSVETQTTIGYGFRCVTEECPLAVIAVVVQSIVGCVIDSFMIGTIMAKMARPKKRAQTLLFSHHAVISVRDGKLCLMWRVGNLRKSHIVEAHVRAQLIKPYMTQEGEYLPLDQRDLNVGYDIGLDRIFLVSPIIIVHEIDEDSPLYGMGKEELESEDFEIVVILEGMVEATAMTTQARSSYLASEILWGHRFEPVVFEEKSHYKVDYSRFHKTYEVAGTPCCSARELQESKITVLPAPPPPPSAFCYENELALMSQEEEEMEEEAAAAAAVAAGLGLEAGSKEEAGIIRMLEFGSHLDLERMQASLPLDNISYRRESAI
KCNJ13 M125R: Inward rectifier potassium channel 13 (KCNJ13, Homo sapiens, UniProt O60928, M125R)
Chain of UniProt Q9UNU6 (whole entry, looked up): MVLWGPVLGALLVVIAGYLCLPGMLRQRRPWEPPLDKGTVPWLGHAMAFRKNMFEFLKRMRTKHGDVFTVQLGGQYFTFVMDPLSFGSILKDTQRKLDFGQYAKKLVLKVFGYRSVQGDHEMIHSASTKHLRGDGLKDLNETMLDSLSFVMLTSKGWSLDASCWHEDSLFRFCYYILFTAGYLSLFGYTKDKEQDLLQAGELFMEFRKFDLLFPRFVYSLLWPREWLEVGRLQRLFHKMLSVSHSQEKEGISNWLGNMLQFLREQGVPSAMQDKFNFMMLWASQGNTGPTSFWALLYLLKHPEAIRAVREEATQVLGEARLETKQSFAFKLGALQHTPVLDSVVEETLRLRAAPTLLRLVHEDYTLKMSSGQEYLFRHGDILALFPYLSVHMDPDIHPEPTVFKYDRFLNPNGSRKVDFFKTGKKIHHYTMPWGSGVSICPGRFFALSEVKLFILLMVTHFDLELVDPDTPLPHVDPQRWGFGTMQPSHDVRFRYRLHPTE
Chain of UniProt O60928 (whole entry, unmodified, looked up): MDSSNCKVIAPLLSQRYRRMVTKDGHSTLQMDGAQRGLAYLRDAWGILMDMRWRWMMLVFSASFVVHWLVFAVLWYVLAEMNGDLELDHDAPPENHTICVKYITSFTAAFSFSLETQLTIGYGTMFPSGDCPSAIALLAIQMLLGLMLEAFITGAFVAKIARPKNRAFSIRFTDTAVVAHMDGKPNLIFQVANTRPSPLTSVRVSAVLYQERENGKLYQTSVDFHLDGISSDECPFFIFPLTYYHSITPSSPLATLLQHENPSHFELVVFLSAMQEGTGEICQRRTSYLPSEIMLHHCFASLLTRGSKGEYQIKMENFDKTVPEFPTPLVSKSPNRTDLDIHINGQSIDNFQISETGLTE
Chain of UniProt O95180 (whole entry, looked up): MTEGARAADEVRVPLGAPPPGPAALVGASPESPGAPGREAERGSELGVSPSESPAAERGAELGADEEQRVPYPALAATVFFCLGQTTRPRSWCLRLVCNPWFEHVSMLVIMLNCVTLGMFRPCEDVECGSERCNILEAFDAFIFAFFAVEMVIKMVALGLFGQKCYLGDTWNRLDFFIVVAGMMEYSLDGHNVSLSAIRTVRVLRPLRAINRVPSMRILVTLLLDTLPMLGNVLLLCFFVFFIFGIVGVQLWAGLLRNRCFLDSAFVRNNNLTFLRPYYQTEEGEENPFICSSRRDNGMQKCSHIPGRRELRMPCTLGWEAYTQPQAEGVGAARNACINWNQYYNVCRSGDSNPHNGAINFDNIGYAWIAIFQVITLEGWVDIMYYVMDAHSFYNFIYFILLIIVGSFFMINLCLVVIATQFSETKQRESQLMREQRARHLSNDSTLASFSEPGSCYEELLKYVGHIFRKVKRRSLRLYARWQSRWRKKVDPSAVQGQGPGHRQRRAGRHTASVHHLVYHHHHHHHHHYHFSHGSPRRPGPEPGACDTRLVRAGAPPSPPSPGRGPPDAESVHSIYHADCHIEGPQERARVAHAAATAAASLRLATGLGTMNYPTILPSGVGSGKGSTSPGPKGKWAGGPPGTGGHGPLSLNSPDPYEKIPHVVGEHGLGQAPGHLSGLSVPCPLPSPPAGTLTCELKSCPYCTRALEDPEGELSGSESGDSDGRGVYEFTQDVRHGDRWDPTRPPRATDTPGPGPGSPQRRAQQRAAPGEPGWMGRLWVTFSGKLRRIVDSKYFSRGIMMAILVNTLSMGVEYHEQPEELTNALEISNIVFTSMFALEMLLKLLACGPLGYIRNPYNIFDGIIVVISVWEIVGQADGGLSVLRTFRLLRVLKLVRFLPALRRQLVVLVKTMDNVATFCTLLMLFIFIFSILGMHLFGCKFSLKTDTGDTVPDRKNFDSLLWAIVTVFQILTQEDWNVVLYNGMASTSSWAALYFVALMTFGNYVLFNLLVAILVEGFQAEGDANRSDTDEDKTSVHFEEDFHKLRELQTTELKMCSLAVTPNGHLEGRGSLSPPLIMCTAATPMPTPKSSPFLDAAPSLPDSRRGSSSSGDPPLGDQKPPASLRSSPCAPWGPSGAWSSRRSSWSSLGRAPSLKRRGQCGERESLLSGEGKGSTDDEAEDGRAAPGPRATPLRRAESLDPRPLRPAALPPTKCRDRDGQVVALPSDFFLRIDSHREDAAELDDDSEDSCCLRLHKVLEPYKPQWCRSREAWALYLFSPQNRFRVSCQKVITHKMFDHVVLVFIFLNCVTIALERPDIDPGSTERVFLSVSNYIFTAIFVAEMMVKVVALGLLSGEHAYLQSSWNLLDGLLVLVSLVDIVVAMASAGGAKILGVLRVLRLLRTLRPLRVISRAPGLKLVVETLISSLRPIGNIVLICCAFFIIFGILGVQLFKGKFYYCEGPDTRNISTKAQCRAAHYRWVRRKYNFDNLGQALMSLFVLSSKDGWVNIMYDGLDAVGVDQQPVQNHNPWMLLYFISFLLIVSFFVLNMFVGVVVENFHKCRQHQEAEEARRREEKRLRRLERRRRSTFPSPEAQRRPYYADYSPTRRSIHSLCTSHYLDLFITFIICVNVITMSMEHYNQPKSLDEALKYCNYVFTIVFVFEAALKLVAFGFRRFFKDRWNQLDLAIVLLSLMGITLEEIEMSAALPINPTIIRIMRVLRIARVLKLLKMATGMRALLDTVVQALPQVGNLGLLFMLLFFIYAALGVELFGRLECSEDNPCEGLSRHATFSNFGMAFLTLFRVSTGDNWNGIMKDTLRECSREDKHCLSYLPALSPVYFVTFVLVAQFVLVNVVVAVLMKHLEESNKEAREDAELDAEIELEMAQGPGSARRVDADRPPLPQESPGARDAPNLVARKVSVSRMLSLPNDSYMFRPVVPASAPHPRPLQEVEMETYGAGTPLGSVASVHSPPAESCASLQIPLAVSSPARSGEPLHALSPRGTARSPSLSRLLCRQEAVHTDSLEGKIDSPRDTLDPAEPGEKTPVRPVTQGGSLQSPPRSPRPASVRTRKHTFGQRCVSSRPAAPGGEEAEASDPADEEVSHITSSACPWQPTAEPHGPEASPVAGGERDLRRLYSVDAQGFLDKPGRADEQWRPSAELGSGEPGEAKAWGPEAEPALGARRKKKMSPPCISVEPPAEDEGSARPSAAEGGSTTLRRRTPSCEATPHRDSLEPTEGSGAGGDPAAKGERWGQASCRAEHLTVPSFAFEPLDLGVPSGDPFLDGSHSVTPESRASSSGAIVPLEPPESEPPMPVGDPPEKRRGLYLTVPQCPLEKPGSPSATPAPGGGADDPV
Chain of UniProt P05186 (whole entry, looked up): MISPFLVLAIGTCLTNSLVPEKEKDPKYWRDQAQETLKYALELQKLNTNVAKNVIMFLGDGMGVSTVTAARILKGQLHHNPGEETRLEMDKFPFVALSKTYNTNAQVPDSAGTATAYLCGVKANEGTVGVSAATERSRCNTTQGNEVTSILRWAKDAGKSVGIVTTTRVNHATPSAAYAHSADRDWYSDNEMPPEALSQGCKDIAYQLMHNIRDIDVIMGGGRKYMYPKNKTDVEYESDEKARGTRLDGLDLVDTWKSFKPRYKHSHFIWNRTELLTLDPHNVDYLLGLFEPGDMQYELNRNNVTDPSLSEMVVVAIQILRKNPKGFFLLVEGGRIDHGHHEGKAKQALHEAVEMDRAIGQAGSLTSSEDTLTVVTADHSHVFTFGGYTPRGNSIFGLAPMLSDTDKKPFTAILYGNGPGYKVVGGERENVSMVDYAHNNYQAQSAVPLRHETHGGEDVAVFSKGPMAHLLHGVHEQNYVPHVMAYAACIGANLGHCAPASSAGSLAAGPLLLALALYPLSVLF

Substance | target | test | system | setting | IC50
CC(/C=C/C(=O)NO)=C\[C@@H](C)C(=O)c1ccc(N(C)C)cc1 | HDAC (Lucilia cuprina egg nuclear extract) | enzyme activity, inhibitor, fluorometric |  |  | 0.016 µM
S=C(Nc1cccc(Cl)c1Cl)N1CCc2ccccc2C1 | Urease | enzyme activity, inhibitor, absorbance |  |  | 30.3 µM
CO[C@H]1/C=C/O[C@@]2(C)Oc3c(C)c(O)c4c(O)c(c(/C=N/N5CCN(C)CC5)c(O)c4c3C2=O)NC(=O)/C(C)=C\C=C\[C@H](C)[C@H](O)[C@@H](C)[C@@H](O)[C@@H](C)[C@H](OC(C)=O)[C@@H]1C | Solute carrier organic anion transporter family member 1B2 (Slco1b2, Mus musculus, UniProt Q9JJL3) | transport, inhibitor | HEK293 overexpressing | with: sorafenib glucuronide 10 µM | ~1 µM
Cc1cccc(Cc2nn(C(C)(C)C)c3ncnc(N)c23)c1 | Ephrin type-B receptor 1 (EPHB1, Homo sapiens, UniProt P54762, G703C) | phosphorylation in cells, inhibitor, western blot |  |  | 2.6 µM
COc1ccc(Cl)cc1C(=O)NCCc1ccc(S(=O)(=O)NC(=O)NC2CCCCC2)cc1 | Na+/K+-ATPase | ouabain-sensitive ATPase activity, inhibitor | HIT cell membranes | 37 °C, partial inhibition, with: ATP 3 mM | 0.0175 µM
COc1cc(C2C(C#N)=C(N)Oc3c2c(=O)[nH]c2ccccc32)ccc1OCc1cn(Cc2ccc(Br)cc2)nn1 (stereo not drawn) | Alpha-glucosidase MAL12 (MAL12, Saccharomyces cerevisiae S288c, UniProt P53341) | enzyme activity |  |  | 14 ± 0.7 µM
CC(=O)c1cnc2ccc(-c3cc(Cl)c(O)c(Cl)c3)nc2c1N[C@H]1CC[C@H](CN(C)C)CC1 | Serine-protein kinase ATM (ATM, Homo sapiens, UniProt Q13315) | kinase activity reporter, inhibitor, SPARK reporter imaging | HEK293 | 1 h, with: etoposide 3 µM | 0.064 µM
N=c1n(Cc2ccc(Cl)cc2)c2ccccc2n1CC(O)COc1ccc(Cl)cc1 (stereo not drawn) | Inward rectifier potassium channel 4 | ion flux, inhibitor, fluorescence |  |  | 5.7 µM
CN(C)Cc1ccc(S(=O)(=O)n2ccc(/C=C/C(=O)NO)c2)cc1 | HDAC (Lucilia cuprina egg nuclear extract) | enzyme activity, inhibitor, fluorometric |  |  | 1.71 µM
O=C(O)c1ccc(C=C2SC(=S)N(c3cccc(C(F)(F)F)c3)C2=O)cc1 | volume-regulated anion channel subunit (Cricetulus griseus, UniProt G3IGZ4) | volume-sensitive chloride current, inhibitor, whole-cell patch clamp | PS120 (hamster, CFTR-negative) | with: hypotonic stimulus | 5.33 µM
C[C@@H](CNCc1ccccc1)N1C[C@H](CCCNC(=N)N)N(CCc2cccc(F)c2)C1=S | adrenergic α1A, α1B and α2A receptors | binding, radioligand displacement |  |  | > 1 µM
O=C(OC[C@H]1O[C@@H](OC(=O)c2cc(O)c(O)c(O)c2)[C@H](OC(=O)c2cc(O)c(O)c(O)c2)[C@@H](OC(=O)c2cc(O)c(O)c(O)c2)[C@@H]1OC(=O)c1cc(O)c(O)c(O)c1)c1cc(O)c(O)c(O)c1 | DNA oxidative demethylase ALKBH2 (ALKBH2, Homo sapiens, UniProt Q6NS38) | 3-methylcytosine repair, inhibitor, HPLC |  | 1 h, 37 °C, with: ssDNA 16mer 5 µM | 18.9 µM
N=C(N)SCCc1ccc(OCc2ccc([N+](=O)[O-])cc2)cc1 | Sodium/calcium exchanger 1, isoform NCX1.3 (SLC8A1, Homo sapiens, UniProt P32418) | forward-mode exchange current, inhibitor, inside-out patch clamp | tsA201 | β-cell splice variant | 2.9 µM
CCOc1ccc(C)cc1S(=O)(=O)Nc1cccnc1 | Alkaline phosphatase, tissue-nonspecific isozyme (ALPL, Homo sapiens, UniProt P05186) | enzyme activity, inhibitor |  |  | 1.93 µM
Cc1nnc(S(=O)(=O)CC(=O)C23CC4CC(CC(C4)C2)C3)s1 | Cytochrome P450 3A4 (CYP3A4, Homo sapiens, UniProt P08684) | enzyme activity, inhibitor, fluorescence |  |  | 6.3 µM
CCCCCc1cc(O)c(C/C=C(\C)CCC=C(C)C)c(O)c1 | Sodium channel protein type 9 subunit alpha (SCN9A, Homo sapiens, UniProt Q15858) | steady-state inactivation, inhibitor, automated patch clamp |  | 500/200 ms prepulse | 13.3 ± 1 µM
COc1cc(/C=N/NC(=O)COc2cc(C)cc3oc(=O)cc(C)c23)ccc1OCc1cn(Cc2ccc(Cl)cc2)nn1 | Urease | enzyme activity, inhibitor |  |  | 13.2 ± 2.06 µM
FC(F)(F)Oc1ccc(Oc2ccnc(N3CCC(NC(=S)Nc4cccnc4)CC3)c2Cl)c(Cl)c1 | Lysophosphatidylserine lipase ABHD12 (Homo sapiens, UniProt Q8N2K0) | enzyme activity, inhibitor |  | lysate | ~0.09 µM
OO | Helix pomatia arylsulfatase | enzyme activity |  | 1 h, pH 5.8, 37 °C, with: p-nitrophenyl sulfate | 143 ± 9 µM
CC(C)c1ccc(OCC(O)Cn2c(=N)n(Cc3ccccc3)c3ccccc32)cc1 (stereo not drawn) | KCNJ13 M125R | ion flux, inhibitor |  |  | 6.03 µM

Substance | target | test | system | setting | IC50
Cc1ccc2nc(C3CC3)n(-c3ccc4[nH]ncc4c3)c2n1 | GRIA1/CACNG8 (Homo sapiens, UniProt P42261+Q8WXS5) | calcium influx, antagonist, FLIPR | HEK293 expressing GluA1o | with: glutamate 100 µM | 0.0034 µM
CC[C@H](C)c1nc2cc(Nc3ccnc4ccc(S(=O)(=O)C(C)C)cc34)ccc2s1 | Receptor-interacting serine/threonine-protein kinase 3 (RIPK3, Homo sapiens, UniProt Q9Y572) | enzyme activity, inhibitor, ADP detection |  |  | 0.011 µM
COc1cc2c(cc1OC)-c1cc3ccc4c(c3c[n+]1CC2)OCO4 | Cytochrome P450 1A2 (Cyp1a2, Rattus norvegicus, UniProt P04799) | inhibitor |  |  | > 100 µM
Cc1cc(OCC(=O)N/N=C/c2ccc(OCc3cn(Cc4ccc(F)cc4)nn3)cc2)c2c(C)cc(=O)oc2c1 | Urease | enzyme activity, inhibitor |  |  | 16.9 ± 0.68 µM
Nc1ncnc2c1ncn2[C@@H]1O[C@H](C[C@H](CC[C@H](N)C(=O)O)NCc2ccccc2)[C@@H](O)[C@H]1O | Histone-lysine N-methyltransferase SETD2 (SETD2, Homo sapiens, UniProt Q9BYW2) | enzyme activity, inhibitor, radiometric methylation |  | with: SAM and peptide at sub-Km | 0.48 ± 0.06 µM
Cn1nnc2ccc(C(c3ccc(OS(N)(=O)=O)cc3)n3cncn3)cc21 (racemic) | Steryl-sulfatase (STS, Homo sapiens, UniProt P08842) | enzyme activity, inhibitor |  |  | > 10 µM
N=c1n(Cc2ccccc2)c2ccccc2n1CC(O)COc1cccc(Cl)c1 (stereo not drawn) | KCNJ13 M125R | ion flux, inhibitor |  |  | 5.63 µM
Tannic acid | Genome polyprotein, NS2B-NS3 protease (Dengue virus type 4, UniProt P09866) | inhibitor, fluorogenic substrate Bz-Nle-Lys-Arg-Arg-AMC | DENV4 |  | 0.13 ± 0.01 µM
Cc1nnc(CNc2cc(N3CCN(S(=O)(=O)c4ccc(F)cc4)CC3)ccc2[N+](=O)[O-])s1 | Kir1 channel protein (Aedes aegypti, UniProt L0EQS9) | ion flux, inhibitor, fluorescence |  |  | 0.381 µM
Clc1cccc(C(c2ccc3[nH]cnc3c2)n2ccnc2)c1 (stereo not drawn) | 7-alpha-hydroxycholest-4-en-3-one 12-alpha-hydroxylase (Homo sapiens, UniProt Q9UNU6) | enzyme activity, inhibitor |  | 2 min, with: 7α-hydroxycholest-4-en-3-one 0.5 µM (Km) | ~40 µM and 37.7 µM
S=C(NC1CCCCC1)N1CCc2ccccc2C1 | Urease | enzyme activity, inhibitor, absorbance |  |  | 24.5 µM
Cc1ccccc1OCC(O)Cn1c(=N)n(Cc2ccccc2)c2ccccc21 (stereo not drawn) | Inward rectifier potassium channel 4 | ion flux, inhibitor, fluorescence |  |  | 5.33 µM
O=S(=O)(Nc1cccc(-c2nnn[nH]2)c1)c1cc(Cl)c(Cl)cc1Cl | Leucyl-cystinyl aminopeptidase (LNPEP, Homo sapiens, UniProt Q9UIQ6) | enzyme activity, inhibitor, fluorescence |  |  | 0.54 µM
C#CCOc1cccc(-c2cc(=O)c3ccccc3o2)c1 | Cytochrome P450 2B1 (Cyp2b1, Rattus norvegicus, UniProt P00176) | enzyme activity, inhibitor | supersomes | with: pentoxyresorufin 5 µM | > 10 µM
COc1cc2c(cc1OC)-c1c/c(=N\c3c(C)cc(C)cc3C)n(C)c(=O)n1CC2 | Potassium channel subfamily K member 18 (KCNK18, Homo sapiens, UniProt Q7Z418) | ion flux, inhibitor |  |  | 8.42 µM
COC(=O)C1=C(C)NC(C)=C(C(=O)OC)C1c1ccccc1[N+](=O)[O-] | Voltage-dependent T-type calcium channel subunit alpha-1H (CACNA1H, Homo sapiens, UniProt O95180) | calcium current, blocker, automated patch clamp |  | tonic block, holding -90 mV | > 3 µM
COc1ccc(OCC(O)Cn2c(=N)n(Cc3ccccc3)c3ccccc32)cc1 (stereo not drawn) | Inward rectifier potassium channel 4 | ion flux, inhibitor, fluorescence |  |  | 3.87 µM
Nc1nc2c(ncn2[C@@H]2O[C@H](COP(=O)(O)OP(=O)(O)O)[C@@H](O)[C@H]2O)c(=O)[nH]1 | Tubulin alpha-1B chain/TUBB2B (Bos taurus, UniProt P81947+Q6B856) | assembly, inhibitor, turbidimetry |  | pH 6.9, 30 °C, bovine, no GTP, MAPs or Mg2+, with: paclitaxel 30 µM | 15 ± 6 µM
Cc1ccsc1S(=O)(=O)NC[C@H]1O[C@@H](C)[C@@H](O)[C@@H](O)[C@@H]1O | fucose-binding lectin LecB (Pseudomonas aeruginosa, UniProt A0A0H2ZE85) |  |  |  | 0.2 to 0.33 µM

Excerpt of the above:
Substance | target | test | system | setting | IC50
Cc1ccsc1S(=O)(=O)NC[C@H]1O[C@@H](C)[C@@H](O)[C@@H](O)[C@@H]1O | fucose-binding lectin LecB (Pseudomonas aeruginosa, UniProt A0A0H2ZE85) |  |  |  | 0.2 to 0.33 µM
S=C(NC1CCCCC1)N1CCc2ccccc2C1 | Urease | enzyme activity, inhibitor, absorbance |  |  | 24.5 µM
CCOc1ccc(C)cc1S(=O)(=O)Nc1cccnc1 | Alkaline phosphatase, tissue-nonspecific isozyme (ALPL, Homo sapiens, UniProt P05186) | enzyme activity, inhibitor |  |  | 1.93 µM
Tannic acid | Genome polyprotein, NS2B-NS3 protease (Dengue virus type 4, UniProt P09866) | inhibitor, fluorogenic substrate Bz-Nle-Lys-Arg-Arg-AMC | DENV4 |  | 0.13 ± 0.01 µM
O=C(O)c1ccc(C=C2SC(=S)N(c3cccc(C(F)(F)F)c3)C2=O)cc1 | volume-regulated anion channel subunit (Cricetulus griseus, UniProt G3IGZ4) | volume-sensitive chloride current, inhibitor, whole-cell patch clamp | PS120 (hamster, CFTR-negative) | with: hypotonic stimulus | 5.33 µM
